Results gathered from unrelated publications.
Compare with care: the assays were run in different laboratories. Numbers after ± are the reported error. Values after ≈ are worked out from the molar mass of the structure shown.
SCTR: Secretin receptor (SCTR, Homo sapiens, UniProt P47872)
UniProt P47872, sequence (whole entry, looked up): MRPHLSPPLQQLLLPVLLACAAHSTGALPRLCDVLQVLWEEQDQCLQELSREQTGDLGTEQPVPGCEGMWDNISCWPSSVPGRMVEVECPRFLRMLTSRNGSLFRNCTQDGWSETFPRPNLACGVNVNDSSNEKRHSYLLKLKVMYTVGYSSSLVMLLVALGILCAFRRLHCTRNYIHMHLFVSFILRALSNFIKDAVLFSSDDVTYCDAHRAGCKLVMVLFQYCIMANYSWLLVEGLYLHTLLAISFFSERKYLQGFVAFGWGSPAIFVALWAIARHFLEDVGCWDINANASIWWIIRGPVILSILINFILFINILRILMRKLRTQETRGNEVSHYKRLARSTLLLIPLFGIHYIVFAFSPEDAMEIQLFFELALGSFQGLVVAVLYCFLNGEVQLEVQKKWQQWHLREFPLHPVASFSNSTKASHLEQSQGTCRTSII
UniProt P50052, sequence (whole entry, unmodified, looked up): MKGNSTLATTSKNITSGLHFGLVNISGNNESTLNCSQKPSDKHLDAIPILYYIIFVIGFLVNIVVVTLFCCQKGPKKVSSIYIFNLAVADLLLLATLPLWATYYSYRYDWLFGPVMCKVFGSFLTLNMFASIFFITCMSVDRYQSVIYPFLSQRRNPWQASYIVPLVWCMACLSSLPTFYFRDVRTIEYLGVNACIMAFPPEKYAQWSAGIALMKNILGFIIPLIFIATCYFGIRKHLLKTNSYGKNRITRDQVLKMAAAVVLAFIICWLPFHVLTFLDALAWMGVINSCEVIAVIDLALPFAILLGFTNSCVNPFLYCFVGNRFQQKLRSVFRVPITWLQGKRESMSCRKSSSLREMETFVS

For `CCCCC/C=C/C(=O)CCc1ccc(O)c(OC)c1`, the IC50 was 6.82 ng/mL (≈ 0.0247 µM) (mAb 3-LD3; antibody binding, indirect competitive ELISA; added: coating antigen hapten 2-OVA).
For `CCCCN1C(=O)c2cccc3c(NCCCCCCCCN4CCOCC4)ccc(c23)C1=O`, “Pearson correlation coefficient” read 0.88 ± 0.02 (BHK-21; lysosome colocalization, confocal microscopy; 0.2 µM, added: LysoTracker Deep Red 0.3 µM).
`CC(=O)Oc1ccccc1C(=O)[O][Pt]([NH2])([NH2])([Cl])([Cl])[O]C(=O)C(Cl)Cl` gave a selectivity index of 1.5 (HEK293 and PSN1; cytotoxicity, MTT; relative to: IC50 HEK293 over IC50 PSN1).
With `COc1cccc2c(NCc3ccccc3)nc(Nc3cccc(F)c3)nc12` the GI50 was 4.9 µM (SW-403; cell growth or viability; 24 h).
For `O=Cc1c(O)ccc2ccccc12`, “log2 fold change” read 2.77 (HUVEC; RNA sequencing, measured: CEBPB; 75 µM, 24 h; relative to: DMSO).
For `C=CC(=O)Nc1cc(-c2nn(C3CCN(CCNC(=O)[C@H](C)CCC45CC6CC(CC(C6)C4)C5)CC3)c3ncnc(N)c23)ccc1Oc1ccccc1`, the potency ratio was about 7 fold (PC-9 GR4; cell growth, CellTiter-Glo; relative to: propionamide control over compound EC50).
For `CCC(=C(c1ccc(Cl)cc1)c1ccc(OCCCN(C)C)cc1)c1ccc(OC)cc1`, the GI50 was 1.88 µM (SNB-19; cell growth or viability, SRB).
`COc1cc(CNC(=O)C[C@H](C)CCC=C(C)C)ccc1OCc1cn(-c2ccccc2F)nn1` gave a growth percent of 71% (BT-549 breast cancer cells; SRB; 10 µM, 48 h).
`Cc1noc(NS(=O)(=O)c2ccc(NC(=O)c3ccnc(-c4cccc(Br)c4)c3)cc2)c1C` has an inhibition of 49 ± 4.69% (mouse spleen cells; cell proliferation, MTT; 100 µM, 72 h, added: concanavalin A 5 µg/mL).
Under “Bcl-2 protein level”, `CC[C@H](C)[C@H](NC(=O)[C@H](CC(C)C)NC(=O)[C@@H](N)CS)C(=O)N[C@@H](CCC(=O)O)C(=O)N[C@@H](Cc1ccc(O)cc1)C(=O)NCC(=O)NCC(=O)N[C@@H](C)C(=O)N[C@@H](CC(=O)O)C(=O)N[C@@H](Cc1ccc(O)cc1)C(=O)N[C@@H](CCCCN)C(=O)N[C@H](C(=O)N[C@H](C(=O)N[C@@H](CC(N)=O)C(=O)N[C@@H](CC(C)C)C(=O)N[C@@H](CCCCN)C(=O)O)[C@@H](C)CC)[C@@H](C)O` is recorded as “increased” (DT40; western blot; infectious bursal disease virus; 50 to 100 nM, 12 h; relative to: infected untreated).
With `COc1ccc(-c2cc(C(F)(F)F)nc(NCc3ccccc3)n2)cc1OC` the EC50 was 27 µM (SCTR; cAMP, agonist).
For `COc1cc(CNC(=O)C[C@H](C)CCC=C(C)C)ccc1OCc1cn(-c2ccccc2Cl)nn1`, the growth percent was 61.3% (SNB-19 CNS cancer cells; SRB; 10 µM, 48 h).
`COc1cc(CCC(C)=O)ccc1O` gave an IC50 of over 4000 ng/mL (mAb 3-LD3; antibody binding, indirect competitive ELISA; added: coating antigen hapten 3-OVA).
`Cc1c2ccnc(C(=O)N[C@H](C)CN(C)C)c2cc2c3cc(OCCCN4CCN(C)CC4)ccc3n(C)c12`: “C9orf72 intron reduction” 42 ± 5% (C9orf72 ALS iPSCs; qRT-PCR; 0.05 µM, added: control siRNA; relative to: vehicle).
`Cc1[nH]nc2c1N=C(c1ccccc1Cl)c1cnc(N3CCOCC3)cc1N2`: EGFR phosphorylation “decreased” (HCC1806; Western blot; concentration not given, 18 h, added: EGF 100 ng/mL).
For `C=C1C(=O)[C@]23C[C@H]1CC[C@H]2[C@@]12CO[C@]3(O)[C@@H](O)[C@@H]1C(C)(C)C=CC2=O`, the selectivity ratio was 54.3 (L6 rat myotubes and HepG2; MTT; relative to: IC50 L6 over IC50 HepG2).
`COc1cc(CNC(=O)C[C@H](C)CCC=C(C)C)ccc1OCc1cn(-c2ccccc2)nn1` gave a growth percent of 74.4% (SNB-19 CNS cancer cells; SRB; 10 µM, 48 h).
`COc1ccc([C@@H]2CC(=O)c3c(O)cc(O[C@@H]4O[C@H](CO[C@@H]5O[C@@H](C)[C@H](O)[C@@H](O)[C@H]5O)[C@@H](O)[C@H](O)[C@H]4O)cc3O2)cc1O` has a viability of 37.6% (A549; cell growth or viability, MTS; 150 µg/mL, 72 h).
`COc1cc([C@@H]2c3cc4c(cc3C=C(C=O)[C@H]2C(=O)N2CCCC2)OCO4)cc(OC)c1OC` has a selectivity index of under 0.8 (uninfected mouse splenocytes; relative to: splenocyte CC50 over amastigote EC50).
For `COc1cc(CNC(=O)C[C@H](C)CCC=C(C)C)ccc1OCc1cn(-c2ccc([N+](=O)[O-])cc2)nn1`, the growth percent was 102% (OVCAR-5 ovarian cancer cells; SRB; 10 µM, 48 h).
`N[C@@H](CCC(=O)N[C@@H](CS[Se]Cc1ccc(-c2cc(C(F)(F)F)nn2-c2ccc(S(N)(=O)=O)cc2)cc1)C(=O)NCC(=O)O)C(=O)O`: PRAS40 phosphorylation “inhibited” (melanoma cells; measured: phospho-PRAS40; concentration not given).
`C#CCN(CC(=O)O[C@H]1[C@H](C)O[C@@H](O[C@H]2[C@H](N(C)C)[C@@H](O)[C@H](O[C@H]3[C@@H](CC=O)C[C@@H](C)[C@@H](O[C@H]4CC[C@H](N(C)C)[C@@H](C)O4)/C=C/C=C/C[C@@H](C)OC(=O)C[C@@H](O)[C@@H]3OC)O[C@@H]2C)C[C@@]1(C)O)C(=O)c1ccc(C(F)(F)F)cc1` — result for “G0/G1 and G2/M phase cells”: “decreased” (HGC-27; PI flow cytometry; 0.10, 0.45, 0.90 µM, 48 h).
`CCOC(=O)CNc1nc(-c2ccccc2)cc(C(F)(F)F)n1` has an EC50 of 22 ± 17 µM (SCTR; increase of tracer binding, TR-FRET; HEK293 membranes; added: Fluo-Sec 6 nM).
For `COc1cc(CNC(=O)C[C@H](C)CCC=C(C)C)ccc1O`, the growth percent was 95.5% (BT-549 breast cancer cells; SRB; 10 µM, 48 h).
The inhibition of `Cc1ccc(C(C)C)cc1.O=C(N=P(c1ccccc1)(c1ccccc1)c1ccccc1)c1ccccn1.[Cl-].[Cl][Ru+]` is reported as 68.9% (HCC1806; cell migration, wound-healing scratch; IC20, 24 h).
Under BRET signal, `CSCC[C@H](NC(=O)[C@@H](NC(=O)[C@H](CC(C)C)NC(=O)[C@H](CC(N)=O)NC(=O)[C@@H](NC(=O)[C@@H]1CCCN1C(=O)[C@H](CCCNC(=N)N)NC(=O)[C@@H](N)CCC(N)=O)C(C)C)[C@@H](C)O)C(=O)N[C@@H](CCCNC(=N)N)C(=O)N[C@@H](CCCNC(=N)N)C(=O)N[C@@H](CCCCN)C(=O)N[C@@H](CC(C)C)C(=O)N[C@@H](CCCNC(=N)N)C(=O)N[C@@H](CCCCN)C(=O)N[C@@H](Cc1c[nH]cn1)C(=O)N[C@@H](CC(N)=O)C(=O)N[C@H]1CSSC[C@@H](C(=O)N[C@@H](CCSC)C(=O)N2CCC[C@H]2C(=O)N[C@@H](CC(C)C)C(=O)N[C@@H](Cc2c[nH]cn2)C(=O)N[C@@H](CO)C(=O)N[C@@H](CCCNC(=N)N)C(=O)N[C@H](C(=O)N2CCC[C@H]2C(=O)N[C@@H](Cc2ccccc2)C(=O)N2CCC[C@H]2C(=O)O)C(C)C)NC(=O)[C@H](CCCNC(=N)N)NC(=O)[C@H](CCCNC(=N)N)NC(=O)[C@H](CCC(N)=O)NC(=O)[C@H](CC(C)C)NC1=O` is recorded as “decreased” (HEK293 expressing APJ S335A; β-arrestin1-AP2 interaction, BRET; relative to: wild-type APJ cells).
Under live cells, `COc1ccc(CC2COC(=O)C2Cc2ccc3c(c2)OCO3)cc1OC` (mixture of isomers) is recorded as “decreased” (A2780; annexin V/7-AAD; 8.75 µM, 72 h; relative to: untreated).
`CCCCCCCCCCCC(=O)NCCC(=O)N[C@H](CCCNC(=N)N)C(=O)N[C@H](CCCNC(=N)N)C(=O)N[C@H](CCCNC(=N)N)C(=O)N[C@H](CCCNC(=N)N)C(=O)N[C@H](CCCNC(=N)N)C(=O)N[C@H](CCCNC(=N)N)C(=O)N[C@H](CCCNC(=N)N)C(=O)N[C@H](CCCNC(=N)N)C(=O)N[C@H](CCCNC(=N)N)C(=O)N[C@@H](CCCCNC(=S)Nc1ccc2c(c1)C(=O)OC21c2ccc(O)cc2Oc2cc(O)ccc21)C(N)=O` has a peak area of 59.1% (Jurkat; RP-HPLC fluorescence, measured: Arg peptide metabolite; culture medium; 6 h).
`CC(C)(C)n1cc(CN(Cc2cn(CC(=O)O)nn2)Cc2cn(C(C)(C)C)nn2)nn1` has a yield of 4% (OVCAR-5 HPG-labelled; CuAAC reaction on cells, LC-ESI-MS/MS; cytosolic proteins; added: NEM 100 µM for 10 min pretreatment).
Under “Pearson correlation coefficient”, `CCCCN1C(=O)c2cccc3c(NCCN4CCOCC4)ccc(c23)C1=O` is recorded as 0.89 ± 0.04 (BHK-21; lysosome colocalization, confocal microscopy; 0.2 µM, added: LysoTracker Deep Red 0.3 µM).
For `O=C(CSc1cccc[n+]1[O-])c1ccccc1Br`, the Emax was 127% (LDR; silenced GFP reporter derepression, microscopy; overnight; relative to: sodium butyrate).
For `COc1ccc(CNc2nc3c(c(=O)[nH]2)[n+](C)cn3C2OC(COP(=O)(O)OP(=O)([O-])OP(=O)(O)OCC3OC(n4cnc5c(=O)[nH]c(N)nc54)C(O)C3O)C(O)C2O)cc1` (centres unmarked), “relative inhibitory potency” read about 10 fold (cap-dependent translation, inhibitor; rabbit reticulocyte lysate; concentration not given; relative to: m7GpppG).
`COc1cc(/C=C/C(=O)NCCCCCCNC2=C3C[C@@H](C)C[C@H](OC)[C@H](O)[C@@H](C)/C=C(\C)[C@H](OC(N)=O)[C@@H](OC)/C=C\C=C(/C)C(=O)NC(=CC2=O)C3=O)ccc1O` — result for “Hsp70 protein level”: “increased” (MDA-MB-231 cells; Hsp90 inhibitor, Western blot; 0.5 µM).
`CO[C@H]1N(OC)c2ccccc2[C@@]12CN=C(Nc1cc(C(F)(F)F)cc(C(F)(F)F)c1)S2` (relative stereo) — result for “G0/G1 phase cells”: 62.97 ± 0.37% (HCT-116; PI flow cytometry; 40 µM, 24 h).
Under “cells in phase”, `Cc1ccc(C(C)C)cc1.[Cl-].[Cl][Ru+].[Ru+].c1ccc(-c2cn(CCCCOc3ccccc3-c3nc4ccccc4s3)nn2)nc1` is recorded as 10.1% (MCF7; PI flow cytometry, measured: S phase; 4 µM, 24 h).
With `COc1cc(CNC(=O)C[C@H](C)CCC=C(C)C)ccc1OCc1cn(-c2ccc(Cl)cc2Cl)nn1` the growth percent was 83.7% (BT-549 breast cancer cells; SRB; 10 µM, 48 h).
`CCc1nc2ccc(N(Cc3ccccc3)C(=O)c3cccs3)cc2c(=O)n1Cc1ccc(-c2ccccc2-c2nn[nH]n2)cc1` has a Ki of 0.0115 µM (AGTR2 (Homo sapiens, UniProt P50052, F129A); ligand displacement, radioligand; cell membranes).
`O=C(N/N=C/c1ccccn1)c1cc(-c2ccc(Cl)cc2)nc2ccccc12` gave an EC50 of 10 µM (LDR; silenced GFP reporter derepression, microscopy; overnight).
Under “Akt protein level”, `CC[C@H](C)[C@@H]1NC(=O)[C@H](Cc2cn(CCc3c(C)[nH]c4cc(Cl)cc(Cl)c34)nn2)NC(=O)[C@@H](CC(N)=O)NC(=O)[C@H](CCCNC(=N)N)NC(=O)[C@H](Cc2ccccc2)NC(=O)[C@@H](CC(C)C)NC(=O)[C@H](C)NC(=O)c2cc3cc(c2)C(=O)NC[C@@H](C(=O)N[C@@H](CCCCN)C(N)=O)NC(=O)[C@H](CCCNC(=N)N)NC(=O)[C@H](CCCNC(=N)N)NC(=O)[C@H](CCCNC(=N)N)NC(=O)[C@H](CCCNC(=N)N)NC(=O)[C@H](Cc2ccc4ccccc4c2)NC(=O)[C@H](Cc2ccccc2)NC(=O)[C@H](CCCCNC3=O)NC(=O)[C@H](CC(=O)O)NC1=O` is recorded as “no effect” (H1299; immunoblot; concentration not given, 12 h).
`COc1cc(OCCN2CCOCC2)cnc1-c1nc2cc(OC(F)(F)F)ccc2[nH]1`: “KIT+ CD41+ cells” “decreased” (mouse inducible Runx1 ES cells; concentration not given, added: doxycycline).
`CC1=CCC23OC2(C)CCC2C(CN(C)C)C(=O)OC2C13.Cl` (centres unmarked) gave a proliferation reduction of 3 fold (C6 rat glioma cells; 2 mg/mL, clonogenic; relative to: control).
